Experimental data of several laboratories.
A part holds a random share of what one study measured.

Study 1
Target: Histone acetyltransferase KAT6A, winged helix 2, GST fusion (KAT6A, Homo sapiens, UniProt Q92794, residues 85-181)
Method: protein binding microarray
Molecule type: double-stranded DNA, one strand shown
Matrix: in vitro
Tested at: not given
Setting: 8-mer, flanks averaged, mean of 2 arrays, mostly near background
Reference: not given
Direction: higher = stronger binding
Construct (chain): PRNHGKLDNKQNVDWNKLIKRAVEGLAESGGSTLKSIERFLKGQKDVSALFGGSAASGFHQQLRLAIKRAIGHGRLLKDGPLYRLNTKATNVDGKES
With `CATGGTTC` the E-score was 0.0465.
With `GACCTGGA` the E-score was -0.0469.
For `AATGCAAG`, the E-score was 0.0745.
With `CGGACAAC` the E-score was 0.174.
`CAGCTTGG` gave an E-score of 0.147.
`ATTACATA` gave an E-score of -0.00248.
`CCAGATGA` has an E-score of -0.0477.
`ACCACGAA` has an E-score of -0.00996.

Study 2
Target: Prothrombin, mature alpha-thrombin (F2, Homo sapiens, UniProt P00734)
Method: aptamer microarray, sandwich
Molecule type: DNA with 2'F-ANA
Matrix: in vitro
Tested at: 200 nM
Setting: whole 15-mer aptamer, many near background
Added: Cy3 exosite-II aptamer, 400 nM
Direction: higher = stronger binding
Sequence: GGTTGGTGTGGTTGG
Under “mean fluorescence intensity”, `2'F-ANA at 2 3 5 7 9 10 12 13 14 15` is recorded as 49.9 a.u.
For `2'F-ANA at 1 5 6 8 9 11 14 15`, “mean fluorescence intensity” read 48.6 a.u.
For `2'F-ANA at 2 3 4 7 9 15`, “mean fluorescence intensity” read 608 a.u.
`2'F-ANA at 2 4 6 7 8 9 11 13 14 15` — result for “mean fluorescence intensity”: 72.3 a.u.
`2'F-ANA at 1 2 3 5 6 7 8 10 11 13 14`: “mean fluorescence intensity” 53.2 a.u.
`2'F-ANA at 1 2 3 8 9 11 12 14 15` — result for “mean fluorescence intensity”: 89.7 a.u.
For `2'F-ANA at 3 4 5 6 7 10 11 14 15`, “mean fluorescence intensity” read 47.9 a.u.
Under “mean fluorescence intensity”, `2'F-ANA at 1 2 5 7 9 12` is recorded as 185 a.u.

Study 3
Target: Sal-like protein 4, full length isoform A (SALL4, Homo sapiens, UniProt Q9UJQ4, residues 1-1053)
UniProt Q9UJQ4, sequence (whole entry, looked up): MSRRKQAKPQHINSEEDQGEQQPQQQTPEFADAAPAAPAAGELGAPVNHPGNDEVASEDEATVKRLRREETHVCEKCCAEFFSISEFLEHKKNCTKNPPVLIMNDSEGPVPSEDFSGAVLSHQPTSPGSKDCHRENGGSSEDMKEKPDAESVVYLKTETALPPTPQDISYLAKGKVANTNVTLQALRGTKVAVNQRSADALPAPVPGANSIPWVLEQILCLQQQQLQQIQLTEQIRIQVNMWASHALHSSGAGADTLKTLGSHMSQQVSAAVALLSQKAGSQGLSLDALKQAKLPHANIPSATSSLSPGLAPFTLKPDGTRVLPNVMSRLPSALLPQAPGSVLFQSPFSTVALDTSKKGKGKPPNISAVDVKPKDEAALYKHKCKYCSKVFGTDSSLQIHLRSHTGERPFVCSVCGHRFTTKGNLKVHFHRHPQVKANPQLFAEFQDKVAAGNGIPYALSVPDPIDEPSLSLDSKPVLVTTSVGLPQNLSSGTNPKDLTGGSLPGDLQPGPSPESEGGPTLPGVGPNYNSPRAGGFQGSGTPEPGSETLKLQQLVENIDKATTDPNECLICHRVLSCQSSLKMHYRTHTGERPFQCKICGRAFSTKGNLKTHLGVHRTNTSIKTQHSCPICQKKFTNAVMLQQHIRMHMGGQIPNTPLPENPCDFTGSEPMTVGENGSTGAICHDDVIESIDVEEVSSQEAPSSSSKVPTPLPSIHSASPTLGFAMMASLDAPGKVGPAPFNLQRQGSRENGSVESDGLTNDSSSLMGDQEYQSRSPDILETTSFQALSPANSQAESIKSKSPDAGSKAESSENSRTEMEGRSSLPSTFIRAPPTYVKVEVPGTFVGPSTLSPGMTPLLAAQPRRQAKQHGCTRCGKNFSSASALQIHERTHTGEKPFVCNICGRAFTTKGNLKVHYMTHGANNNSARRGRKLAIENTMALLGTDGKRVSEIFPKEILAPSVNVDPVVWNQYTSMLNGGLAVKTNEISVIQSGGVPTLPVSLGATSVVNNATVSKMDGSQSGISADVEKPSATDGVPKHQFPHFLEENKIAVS
Method: universal PBM
Molecule type: double-stranded DNA, one strand shown
Matrix: in vitro
Tested at: 600 nM
Setting: 8-mer, flanks averaged, mean of replicates
Direction: higher = stronger binding
The E-score of `CGCCACGA` is reported as -0.0126.
For `ACATTGAG`, the E-score was 0.0335.
With `GTCGCGTA` the E-score was -0.0717.
For `CGTAGAGA`, the E-score was -0.0196.
The E-score of `ATCAGGTC` is reported as -0.109.
`ACTAACGC` gave an E-score of -0.00639.
`ACGGGCGA` has an E-score of -0.273.
The E-score of `GCTGTTGA` is reported as 0.0314.

Mixed results
The remaining compound of `O=C(O)C[C@@H](Cc1cc(F)c(F)cc1F)NC(=O)Nc1ccc(I)cc1` is reported as 66.7% (human, microsomes or S9; 2 µM, 0.5 h).

Some of these lines once more (mixed results):
The remaining compound of `O=C(O)C[C@@H](Cc1cc(F)c(F)cc1F)NC(=O)Nc1ccc(I)cc1` is reported as 66.7% (human, microsomes or S9; 2 µM, 0.5 h).
